Measured values collected from several papers.
A part holds a random share of what one study measured.

Sample 1 — method: protein-binding microarray; molecule type: double-stranded DNA, one strand shown; matrix: in vitro; tested at: 250 nM; setting: 60-bp whole probe; with: salmon DNA 0.4 mg/ml; reference: random background probes; reading: higher = stronger binding; shared flanks, not repeated: GCCTAGCAC … GTCTTGATTCGCTTGACGCTGCTG
Target: Interferon regulatory factor 7, full length, phosphomimetic (IRF7, Homo sapiens, UniProt Q92985, residues 1-503, S101K/S471D/S472D/S475D/S476D/S477D/S483D/S484D/S487D)
Target sequence (chain): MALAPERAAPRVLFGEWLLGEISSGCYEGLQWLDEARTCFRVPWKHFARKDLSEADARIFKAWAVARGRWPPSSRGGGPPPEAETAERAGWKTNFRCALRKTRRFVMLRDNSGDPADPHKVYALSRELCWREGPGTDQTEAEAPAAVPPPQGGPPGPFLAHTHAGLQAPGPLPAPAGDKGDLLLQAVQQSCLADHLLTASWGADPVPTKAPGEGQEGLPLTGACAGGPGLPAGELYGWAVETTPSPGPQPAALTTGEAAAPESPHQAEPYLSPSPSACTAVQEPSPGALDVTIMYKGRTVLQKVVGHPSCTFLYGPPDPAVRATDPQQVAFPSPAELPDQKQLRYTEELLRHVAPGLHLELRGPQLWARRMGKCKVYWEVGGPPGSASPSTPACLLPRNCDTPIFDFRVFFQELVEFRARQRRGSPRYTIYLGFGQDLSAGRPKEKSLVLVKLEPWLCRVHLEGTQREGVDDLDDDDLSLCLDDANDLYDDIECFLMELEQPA
Sequence	log fluorescence
TTTATTTTTTTTATTTATAAGTGCTAG	1.21 z-score
TCAGATCTCCGAGATGCCACTGTGCTA	-0.358 z-score
TTAGATATCGGGACTTGATTAGTGCTA	-0.0188 z-score
GACGGACTGGGGTTTCGTGACGTGCTA	-0.0606 z-score
TTGCATCTGGGTATTTTTCTGTGCTAG	-0.626 z-score
TTAGGTACCGACTTTCGGTTAGTGCTA	2.37 z-score
GGCGATTTCAGTCTCGAGACGTGCTAG	0.267 z-score
TCAACTTTCCAAAGCGTACTGTGCTAG	0.645 z-score
TTAGGTATCGGTTTCGGGTAGTGCTAG	7.8 z-score
GACGGTTCCGTTTTCCTGACGTGCTAG	6.17 z-score

Sample 2 — method: RNA Bind-n-Seq; molecule type: RNA; matrix: in vitro; tested at: not given; reference: input RNA pool; reading: higher = stronger binding
Target: RING finger protein unkempt homolog, zinc fingers 1-6, GST-SBP tag (UNK, Homo sapiens, UniProt Q9C0B0, residues 30-357)
Setting: RNA with constant flanks, human and mouse sites, ends assumed
Target sequence (chain): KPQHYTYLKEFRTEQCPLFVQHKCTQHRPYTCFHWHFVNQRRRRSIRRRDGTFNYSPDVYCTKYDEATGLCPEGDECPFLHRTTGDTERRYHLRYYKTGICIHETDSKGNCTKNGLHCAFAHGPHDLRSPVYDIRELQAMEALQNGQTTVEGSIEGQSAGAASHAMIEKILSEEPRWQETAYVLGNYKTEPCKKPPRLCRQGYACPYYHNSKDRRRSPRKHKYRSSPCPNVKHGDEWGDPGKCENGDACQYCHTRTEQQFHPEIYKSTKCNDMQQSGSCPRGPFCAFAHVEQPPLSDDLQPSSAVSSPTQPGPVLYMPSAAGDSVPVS
Sequence	bound/input enrichment [ratio]
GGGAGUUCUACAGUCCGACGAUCUUUGCUGAACUGGACAAAGUGAUGGGCCCUCUCAUCUUUAAUGCAAGCAUCAUGACAGAUCUGGCUCGUUACACCCGGCAGGGACUGCAUUGGCUUCGGCAGGAUGCCAAGCUGAUAUCUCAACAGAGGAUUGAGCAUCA	0.141
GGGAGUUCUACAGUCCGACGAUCGUAUUUCUUAAACCUCAACUCUAGGUCUCCUGAAUACCUCUCAUUAUUUAUUGAUGAUAAACUGAAAAAGGGAGUCAAAGGGCUAACAGAACAAGAAGUAGAAACAAUAUUGGAUAAGGCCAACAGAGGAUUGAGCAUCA	0.8
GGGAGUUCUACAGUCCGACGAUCAACUACGUGACGAUUAAGCUUUGCUUACUGCUACAUGGCAUGUAUUCUUUUCCGUCUUUUGUGUCUGGUUCUGUUUGCUUCCCCCUGCCGCACAGUGUCCAUCGCACGGUGUCUCUGUGACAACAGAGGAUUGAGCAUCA	0.0936
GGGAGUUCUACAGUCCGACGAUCGUGGAUAGCUUUGAUGACAUGAAUCUCUCAGAGUCCCUCCUCCGUGGUAUUUAUGCCUAUGGUUUUGAGAAGCCCUCUGCCAUCCAGCAGCGAGCUAUUCUUCCUUGUAUCAAGGGUUAUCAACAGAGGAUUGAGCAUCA	0.161
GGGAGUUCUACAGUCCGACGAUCGUGCUUCAUAUCAGCUCUCUUCUUGCAUGGACACUACUGCUGACCAUAUGCCCAAUCAAUGAAGUGAAGAAAAAGCUUGAGAUGCAUUUCCAUAAGCUUCCAAGCCUCCUCUCUUGUGAUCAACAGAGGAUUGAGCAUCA	0.115
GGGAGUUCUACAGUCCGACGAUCGAGUAGUUGAUAGUUGCACUCCCAGUCAUUGAAUUGCUUCUGUGUUUCCCUGUAGGUCCAUAGUAACCCUUUGUCAGUCUUACACAUUUGUAAGGACCCUGCAAGACAGCAACAACGACUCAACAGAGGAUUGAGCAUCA	0.373
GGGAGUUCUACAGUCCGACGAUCAAUGGCAAUGGGGGACCUGGUCCCUAUGUGGGGCAAGCUGGCACUGCUACCCUUCCUAGGAACUUCCACUACCCUCCUGAUGGUUAUAGUCGCCACUAUGAAGAUGGUUAUCCAGGUGGCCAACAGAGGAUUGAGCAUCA	0.195
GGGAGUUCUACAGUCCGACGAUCUUUCCGGUCCUUCCUGGGCAAAUCUAAGCCUUGGCCAGGGCCGAAGUUUAGGCCCCUGUCUUGUUCAUGUAGCCGAGGGGCAGGCGGGGGACCUCUACACCUCUGCUGUGGGCACGGGGCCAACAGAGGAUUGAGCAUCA	0.186

Sample 3 — method: RNA Bind-n-Seq; molecule type: RNA; matrix: in vitro; tested at: 365 nM; reference: no-protein control; reading: higher = stronger binding
Target: RNA binding protein fox-1 homolog 2, RRM domain, GST-SBP tag (RBFOX2, Homo sapiens, UniProt O43251-10, residues 100-194)
Setting: natural RNA segment, single round, ends assumed
Construct (chain): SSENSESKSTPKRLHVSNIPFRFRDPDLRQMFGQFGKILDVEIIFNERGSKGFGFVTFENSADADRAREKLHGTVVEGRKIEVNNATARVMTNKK
Sequence	RBNS enrichment (R)
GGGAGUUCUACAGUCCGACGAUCAUGUUAAUCCAUGCUACCUAAAGUAAAGACAGGCUGCUUGGCCAAGUGGACACACUUGAGAAACAGUGGAGGGAGAGUGUGAAAGCCACACGCUUGCCCUGGUUGGUCCUUGGAAUUCUCGGGUGCCAA	0.358
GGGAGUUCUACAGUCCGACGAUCCUAGAGAAAACUUACAGAACAGGUGUUAAGCCUUUUCCAAUAUUUAGUAUUGUAGUCUUCAUAGAAAUCAUUUCUAGUUACAGAAAAAUUUAACUCCAGAAUAUGGUGAUUGGAAUUCUCGGGUGCCAA	0.313
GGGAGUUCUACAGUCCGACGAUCCAUUCUGGAACUGCUGGUCAGGGGACUUUGUCGCCCUGUGCACUAAAAGGGCCAGAUUUUCAGCAGCCAAGGACAUCCAUACCCAAGUGAAUGUGAUGGGACUUAAAAGAUGGAAUUCUCGGGUGCCAA	1.44
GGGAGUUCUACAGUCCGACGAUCGCGUCCAUCUGUGCUGUGCGCCCCACAGUAGACGUGCAGACGUCCCUGAGAGGUUCUUGAAGAUGUUUAUUUAUAUUGUCCUUUUUUACUGGAAGACGUACGCAUACUCCUGGAAUUCUCGGGUGCCAA	0.477
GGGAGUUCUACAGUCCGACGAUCACAGUGAGACAAAUGGAAGUACUCCCCUCGCAGAUUCAGACACUCCAAACGGGACACAGCAAGACGAGACCGUUGACAGCCAGGACAGUAAUGCCAUUGCCGCCGUCAAGUGGAAUUCUCGGGUGCCAA	1.14
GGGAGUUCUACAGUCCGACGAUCUAUACCUCCUGCUGGUAUCAGGUGUCAGAAGGGACAUUUGUUAGAUGCCUUACUUGACCUUCCUAGGAACUGUUGAUCAGCUACCUCUUUCUGUCAAGUGUUGGUAGAAUUGGAAUUCUCGGGUGCCAA	0.315
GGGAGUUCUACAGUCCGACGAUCAUGGUUACACUGUUAGAACACUAUUUUUCAGAAUCUGAAUGUAAUUUGUGUAAUAAAGUGUUUUCAGGCAUUAGCAGUCAGAGUGUAUUUUUGUGAUUUUUUGCACACUUUGGAAUUCUCGGGUGCCAA	0.855
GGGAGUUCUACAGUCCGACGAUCAGUGUUGAUAGAGCAGCAUAUUAGACAAACACACAGUUGUUAGUUUUCAGACAUUCGCUCACGGACAAUACCAUCUCAGCUUUGCCCUUGCUCCGUGUGUCCACUCCUGCUGGAAUUCUCGGGUGCCAA	1.23
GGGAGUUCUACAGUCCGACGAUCUGUUAGUGGUAACUCAGUUUGUCUUUAAAUAGUUACAGAAGGGAUACGUCAUUUGUUAAUGCUUUUGUGAAGUGAGUUAAACGAGCUUUCUGUAUUUUAAUGCUUUAGUGUGGAAUUCUCGGGUGCCAA	3.18
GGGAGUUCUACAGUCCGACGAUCGAAGCUUGGUGCAAGCUAAAAUUUUUAAAUGGUGUGGAAAUGCAAAUAAUACCAAGUAAAAUAAUACAGAUAUUAUUAAAGUUUCUGGUUUUGAGGUGUUGUAGAUAAAUUGGAAUUCUCGGGUGCCAA	1.36

Other studies, line by line
Substance	target	test	system	setting	scale	measurement	value
PhoQ, residues 284 288 289 292 302 303 SLKLQV	PhoP, residues 12 14 15 18 19 LWHSL (Escherichia coli, UniProt P23836)	Sort-seq, measured: YFP reporter	E. coli	PhoQ-PhoP variant library, with: 10 µM Mg2+	reference: high Mg2+ state, higher = stronger signaling	fold induction	9.15

A few entries again (sample 3):
Sequence	RBNS enrichment (R)
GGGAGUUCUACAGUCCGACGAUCAGUGUUGAUAGAGCAGCAUAUUAGACAAACACACAGUUGUUAGUUUUCAGACAUUCGCUCACGGACAAUACCAUCUCAGCUUUGCCCUUGCUCCGUGUGUCCACUCCUGCUGGAAUUCUCGGGUGCCAA	1.23
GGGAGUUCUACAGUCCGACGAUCAUGGUUACACUGUUAGAACACUAUUUUUCAGAAUCUGAAUGUAAUUUGUGUAAUAAAGUGUUUUCAGGCAUUAGCAGUCAGAGUGUAUUUUUGUGAUUUUUUGCACACUUUGGAAUUCUCGGGUGCCAA	0.855
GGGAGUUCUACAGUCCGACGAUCUAUACCUCCUGCUGGUAUCAGGUGUCAGAAGGGACAUUUGUUAGAUGCCUUACUUGACCUUCCUAGGAACUGUUGAUCAGCUACCUCUUUCUGUCAAGUGUUGGUAGAAUUGGAAUUCUCGGGUGCCAA	0.315
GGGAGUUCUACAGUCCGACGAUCACAGUGAGACAAAUGGAAGUACUCCCCUCGCAGAUUCAGACACUCCAAACGGGACACAGCAAGACGAGACCGUUGACAGCCAGGACAGUAAUGCCAUUGCCGCCGUCAAGUGGAAUUCUCGGGUGCCAA	1.14
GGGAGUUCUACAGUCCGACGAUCGCGUCCAUCUGUGCUGUGCGCCCCACAGUAGACGUGCAGACGUCCCUGAGAGGUUCUUGAAGAUGUUUAUUUAUAUUGUCCUUUUUUACUGGAAGACGUACGCAUACUCCUGGAAUUCUCGGGUGCCAA	0.477
